Measured values pooled from the literature.
A part holds a random share of what one study measured.

Study 1
Target: Prothrombin, mature alpha-thrombin (F2, Homo sapiens, UniProt P00734)
Method: aptamer microarray, sandwich
Form: DNA with 2'F-ANA
Sample: in vitro
Concentration: 200 nM
Setting: whole 15-mer aptamer, many near background
With: Cy3 exosite-II aptamer, 400 nM
Reading: higher = stronger binding
Sequence: GGTTGGTGTGGTTGG
Modification	mean fluorescence intensity [a.u.]
2'F-ANA at 2 3 4 5 8 10 11 14	48.9
2'F-ANA at 3 4 5 7 8	115
2'F-ANA at 2 3 5 7 8 10 14	49.4
2'F-ANA at 1 2 3 6 9 10 13	60.1
2'F-ANA at 1 3 6 8 11 13 15	226
2'F-ANA at 2 3 4 5 6 7 8 13 14 15	77.2
2'F-ANA at 1 3 7 12 15	573
2'F-ANA at 1 2 3 8 9 11 12	357
2'F-ANA at 2 3 5 9 10 11 12 14	56.1
2'F-ANA at 2 3 4 7 13 14 15	315
2'F-ANA at 1 3 4 5 7 8 9 10 11 12	53.8
2'F-ANA at 1 4 6 7 8 9 12 13	182
2'F-ANA at 3 4 5 7 9 10 12 14	48.8
2'F-ANA at 1 2 3 4 5 6 7 8 9 10 11 12 14	51.8
2'F-ANA at 1 3 4 5 6 7 8 12 15	118
2'F-ANA at 1 8 9 12 13	328
2'F-ANA at 3 6 14 15	519
2'F-ANA at 1 2 3 4 5 6 7 9 11 13 14 15	55.8
2'F-ANA at 5 6 9 10 12 13 14 15	43.9
2'F-ANA at 4 7 8 10 11 14	60.1

Study 2
Target: Histone acetyltransferase KAT6A, winged helix 2, GST fusion (KAT6A, Homo sapiens, UniProt Q92794, residues 85-181)
Method: protein binding microarray
Form: double-stranded DNA, one strand shown
Sample: in vitro
Concentration: not given
Setting: 8-mer, flanks averaged, mean of 2 arrays, mostly near background
Reference: not given
Reading: higher = stronger binding
Residues (chain): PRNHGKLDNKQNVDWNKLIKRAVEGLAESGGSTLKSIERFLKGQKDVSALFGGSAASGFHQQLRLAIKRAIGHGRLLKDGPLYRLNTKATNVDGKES
Sequence	E-score
CAAACCCG	0.131
CGAGCAGC	0.104
TGACATAA	-0.0948
AAACGTTC	-0.13
GTCGAAGA	0.114
AACCGAAC	0.134
GGATACCA	-0.0114
AAGACAAG	0.0846
GCTAGGGA	-0.168
AGGGAGTG	-0.0338
CACCCACG	0.163
CCCTAGCG	-0.116
ACAGCGGT	-0.0463
CCGAATAC	0.0652
GAATTGCC	-0.0376
AGGATTCG	-0.0797
AGTCCAAA	0.028
AGAACTAA	-0.00414
ACGTACTA	-0.099
GCACTACC	-0.0254
CAGGTGCC	-0.0941
ACGCTTCT	-0.237
ACGGTAAA	-0.294
GTTCTAAA	0.104
GGTCGCTA	-0.0507

Study 3
Target: Interferon regulatory factor 7, full length, phosphomimetic (IRF7, Homo sapiens, UniProt Q92985, residues 1-503, S471D/S472D/S475D/S476D/S477D/S483D/S484D/S487D)
Method: protein-binding microarray
Form: double-stranded DNA, one strand shown
Sample: in vitro
Concentration: 2200 nM top
Setting: 60-bp whole probe
With: salmon DNA 0.4 mg/ml
Reference: random background probes
Reading: higher = stronger binding
All sequences stand within: GCCTAGCAC … GTCTTGATTCGCTTGACGCTGCTG
Residues (chain): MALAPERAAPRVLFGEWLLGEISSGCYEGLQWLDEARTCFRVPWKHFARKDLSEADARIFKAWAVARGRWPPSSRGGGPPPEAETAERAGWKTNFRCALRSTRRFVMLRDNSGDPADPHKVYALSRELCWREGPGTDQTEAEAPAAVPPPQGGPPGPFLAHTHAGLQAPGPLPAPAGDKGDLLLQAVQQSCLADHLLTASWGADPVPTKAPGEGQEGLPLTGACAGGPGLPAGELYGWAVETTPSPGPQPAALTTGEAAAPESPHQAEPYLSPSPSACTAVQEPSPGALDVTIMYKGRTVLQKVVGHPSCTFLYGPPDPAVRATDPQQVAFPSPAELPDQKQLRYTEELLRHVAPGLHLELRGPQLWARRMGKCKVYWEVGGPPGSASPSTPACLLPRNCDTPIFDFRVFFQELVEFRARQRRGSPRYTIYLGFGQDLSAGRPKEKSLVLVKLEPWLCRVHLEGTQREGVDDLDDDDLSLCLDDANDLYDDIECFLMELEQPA
Sequence	fitted relative affinity [z-score]
TTAGACTCCAGTTTCGATTAGTGCTAG	6.1
AGGGTGTTCTTTTCTGTTGTCGTGCTA	1.45
GACGGTTTCAGACTGGAGACGTGCTAG	1.04
TTAGATATCAGAGTGGATTAGTGCTAG	-0.432
AGTGGCCCAGGGCATCCCCTGTGCTAG	-1.28
TCAGCTTTCTTTTATGCACTGTGCTAG	1.39
CAACCAATCATTTTTGCTTAGTGCTAG	1.07
TGGAACTTAAAAGAAAGATAGTGCTAG	-1.42
TTAGGAGTCAACTCTCTAATTGTGCTA	-0.51
AACGATTCCAGTTTCGAGACGTGCTAG	4.25
TTAGATATTAAACTGATAGGGTGCTAG	-0.723
GACGGTATCGACTTTCCGGACGTGCTA	1.41
GTGACTCAGCACTTTGGCATGGTGCTA	0.141
GACGGACTGGGGTTTCGGGCCGTGCTA	-0.16
TTACATTTCAGTTCCGATTAGTGCTAG	3.06
TCAGGTCTGGGTATTTTACTGTGCTAG	0.036
TCAGATCTCAGACTGGATTAGTGCTAG	0.135
GACGGACTGCTTGTCCTGACGTGCTAG	0.442
ACAAAGATTTTTATCAAATGGTGCTAG	-0.644

Study 4
Target: Sal-like protein 4, full length isoform A (SALL4, Homo sapiens, UniProt Q9UJQ4, residues 1-1053)
Sequence of UniProt Q9UJQ4 (whole entry, looked up): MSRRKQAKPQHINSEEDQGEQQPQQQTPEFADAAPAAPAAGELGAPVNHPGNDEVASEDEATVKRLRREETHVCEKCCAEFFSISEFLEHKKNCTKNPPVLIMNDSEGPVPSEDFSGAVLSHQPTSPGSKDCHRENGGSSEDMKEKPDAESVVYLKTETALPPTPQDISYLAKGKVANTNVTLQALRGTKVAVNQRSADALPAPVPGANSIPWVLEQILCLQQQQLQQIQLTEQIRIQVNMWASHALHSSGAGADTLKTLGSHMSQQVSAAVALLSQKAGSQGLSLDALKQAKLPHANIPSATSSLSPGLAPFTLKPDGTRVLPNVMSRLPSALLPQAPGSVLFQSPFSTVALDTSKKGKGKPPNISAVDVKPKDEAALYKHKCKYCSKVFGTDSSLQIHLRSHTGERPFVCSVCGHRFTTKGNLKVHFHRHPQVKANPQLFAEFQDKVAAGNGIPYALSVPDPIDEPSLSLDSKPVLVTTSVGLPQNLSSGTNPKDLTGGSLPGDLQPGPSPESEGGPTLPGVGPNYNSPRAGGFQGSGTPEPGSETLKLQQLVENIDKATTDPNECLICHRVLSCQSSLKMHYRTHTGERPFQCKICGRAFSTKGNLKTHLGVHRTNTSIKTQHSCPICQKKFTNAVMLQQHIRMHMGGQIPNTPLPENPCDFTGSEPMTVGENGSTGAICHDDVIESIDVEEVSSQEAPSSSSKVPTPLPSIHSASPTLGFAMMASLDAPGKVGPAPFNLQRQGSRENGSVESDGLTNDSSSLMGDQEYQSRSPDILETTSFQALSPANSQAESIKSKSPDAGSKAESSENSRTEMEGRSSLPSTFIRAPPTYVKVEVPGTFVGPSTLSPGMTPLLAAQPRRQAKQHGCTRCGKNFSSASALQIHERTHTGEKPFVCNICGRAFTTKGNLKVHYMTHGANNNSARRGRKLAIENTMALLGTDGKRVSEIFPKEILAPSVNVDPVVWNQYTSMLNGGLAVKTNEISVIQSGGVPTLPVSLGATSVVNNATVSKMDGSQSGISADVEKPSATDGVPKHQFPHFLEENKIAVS
Method: universal PBM
Form: double-stranded DNA, one strand shown
Sample: in vitro
Concentration: 600 nM
Setting: 8-mer, flanks averaged, mean of replicates
Reading: higher = stronger binding
Sequence	E-score
CGCATCGA	-0.0124
CTGGCCAA	-0.191
AAGAAACT	-0.0185
ATCCAACC	-0.106
CCGAAGCC	-0.341
ATATGCGC	0.138
AGAAGTTC	-0.126
ATGAAGTC	0.0441
AGCATTAT	0.306
GTCATAAA	0.415
ACTAGACC	0.0147
ACAAAAAG	0.203
TACGGTGA	0.101
AACGCATA	0.137
CTGGATTC	-0.166
CGCAGACG	-0.181
CCTCTGCC	-0.201
ATGTCAGG	0.0259
TAATCTAA	0.278
CACTCGAG	-0.239
AAAATTAT	0.451
ATTCGTCC	0.105
ACACAGCT	-0.0433
ATCCTCAT	-0.0239
TAGCGGGA	-0.198

For quick reference, copied from above (study 4):
Sequence	E-score
ACTAGACC	0.0147
ACAAAAAG	0.203
TACGGTGA	0.101
AACGCATA	0.137
CTGGATTC	-0.166
CGCAGACG	-0.181
